Measured values of several laboratories.
Each line is one published result; not all experiments were run side by side.
Organism: Klebsiella pneumoniae

Structure (SMILES) | test | system | setting | MIC
CC1(C)[C@H](NC(=O)/C(=N\OCC(=O)N2CCC(C(=O)O)C2)c2nsc(N)n2)C(=O)N1OS(=O)(=O)O (some centres unmarked) | agar dilution | 09-20, NDM-1 |  | 64 µg/mL
COc1ccc(O)c(/C=N/[C@@H]2CCCC[C@@H]2/N=C/c2c(O)ccc3ccc(OC)cc23)c1 | bacterial growth, broth microdilution | carbapenem-resistant clinical isolate |  | > 40 µM
CC[C@H](C)[C@H](NC(=O)[C@H](CCCCN)NC(=O)[C@H](CCCCN)NC(=O)[C@H](Cc1ccccc1)NC(=O)[C@H](Cc1ccccc1)NC(=O)[C@H](CCCCN)NC(=O)[C@H](CCCCN)NC(=O)[C@H](Cc1ccccc1)NC(=O)[C@H](CCCNC(=N)N)NC(=O)[C@@H](N)CCCCN)C(=O)N[C@@H](CCCCN)C(=O)N[C@@H](CCCCN)C(=O)N[C@@H](CO)C(=O)N[C@H](C(=O)N[C@@H](CCCCN)C(=O)N[C@@H](CCCCN)C(=O)N[C@@H](CCCNC(=N)N)C(=O)N[C@H](C(=O)N[C@@H](CCCCN)C(=O)N[C@@H](CCCCN)C(=O)N[C@@H](CC(C)C)C(=O)N[C@@H](Cc1ccccc1)C(=O)N[C@@H](CCCCN)C(=O)N[C@@H](CCCCN)C(=O)N1CCC[C@H]1C(=O)N[C@@H](CCCNC(=N)N)C(=O)N[C@H](C(=O)N[C@H](C(=O)N1CCC[C@H]1C(=O)N[C@H](C(=O)N[C@@H](CO)C(=O)N[C@H](C(=O)N1CCC[C@H]1C(=O)N[C@@H](Cc1ccccc1)C(=O)O)[C@@H](C)CC)[C@@H](C)CC)[C@@H](C)CC)C(C)C)C(C)C)C(C)C | broth microdilution | ATCC 13883 | 20 h | 2 µg/mL
CC[C@H](C)[C@H](NC(=O)[C@@H](CCCNC(=N)N)NC(=O)[C@H](CCCNC(=N)N)NC(=O)[C@@H]1CCCN1C(=O)[C@@H]1CCCN1C(=O)[C@H](Cc1c[nH]cn1)NC(=O)[C@@H]1CCCN1C(=O)[C@H](CCCNC(=N)N)NC(=O)[C@@H]1CCCN1C(=O)[C@H](CC(C)C)NC(=O)[C@H](Cc1ccc(O)cc1)NC(=O)[C@@H]1CCCN1C(=O)[C@@H]1CCCN1C(=O)[C@H](CCCCN)NC(=O)[C@H](CC(=O)O)NC(=O)[C@@H](N)C(C)C)C(=O)N[C@@H](Cc1ccc(O)cc1)C(=O)N[C@@H](CC(N)=O)C(=O)N[C@H](CCCNC(=N)N)C(N)=O | broth microdilution | DSM 681 | 18 h, 37 °C, 25% MHB2 | 8 µg/mL
CCCCCCCC(=O)N[C@@H](CCN)C(=O)N[C@H](C(=O)N[C@@H](CCN)C(=O)N[C@H]1CCNC(=O)[C@H]([C@@H](C)O)NC(=O)[C@H](CCN)NC(=O)[C@H](CCN)NC(=O)[C@H](Cc2ccc(Cl)cc2)NC(=O)[C@@H](CC(C)C)NC(=O)[C@H](CCN)NC1=O)[C@@H](C)O | broth microdilution | ATCC 13883, colistin-susceptible |  | 4 to 8 µg/mL
CC[C@H](C)[C@H](NC(=O)[C@H](C)NC(=O)[C@@H](NC(=O)[C@H](CC(=O)O)NC(=O)[C@H](CCCCN)NC(=O)[C@H](CO)NC(=O)[C@@H](NC(=O)[C@H](CC(N)=O)NC(=O)[C@H](C)NC(=O)[C@@H](NC(=O)[C@H](CCC(=O)O)NC(=O)[C@H](CCCCN)NC(=O)[C@@H](NC(=O)[C@@H](NC(=O)[C@H](Cc1c[nH]cn1)NC(=O)[C@H](CCCCN)NC(=O)[C@@H](NC(=O)[C@H](CCCCN)NC(=O)[C@H](CCCCN)NC(=O)[C@@H](NC(=O)[C@H](CC(C)C)NC(=O)[C@H](CCCCN)NC(=O)[C@H](CC(N)=O)NC(=O)[C@H](Cc1ccccc1)NC(=O)[C@H](CCCNC(=N)N)NC(=O)[C@H](CCCCN)NC(=O)[C@H](CCCNC(=N)N)NC(=O)[C@H](Cc1ccccc1)NC(=O)CN)C(C)C)C(C)C)[C@@H](C)O)[C@@H](C)CC)[C@@H](C)O)C(C)C)C(C)C)C(=O)N[C@H](C(=O)N[C@@H](C)C(=O)NCC(=O)N[C@@H](CO)C(=O)NCC(=O)N[C@H](C(=O)N[C@@H](C)C(=O)N[C@H](C(=O)NCC(=O)N[C@@H](C)C(=O)N[C@@H](C)C(=O)N[C@@H](CCSC)C(N)=O)C(C)C)C(C)C)C(C)C |  | DSM 30104, CAMHB with 10% mouse serum |  | 0.063 µg/mL
CCn1c(-c2ccc(OC)cc2)c(-c2ccc(OC)cc2)n(CC)c1=[Se] | broth microdilution | carbapenem-resistant BAA-1705 | 24 h | > 40 µM
CC[C@H](C)[C@H](NC(=O)[C@@H](CCCNC(=N)N)NC(=O)[C@H](CCCNC(=N)N)NC(=O)[C@H](Cc1ccccc1)NC(=O)[C@H](Cc1c[nH]c2ccccc12)NC(=O)[C@H](CCCNC(=N)N)NC(=O)[C@@H]1CCCN1C(=O)[C@H](CCCNC(=N)N)NC(=O)[C@@H]1CCCN1C(=O)[C@H](CC(C)C)NC(=O)[C@H](Cc1ccc(O)cc1)NC(=O)[C@@H]1CCCN1C(=O)[C@@H]1CCCN1C(=O)[C@H](CCCCN)NC(=O)[C@H](CC(=O)O)NC(=O)[C@@H](N)C(C)C)C(=O)N[C@@H](Cc1ccc(O)cc1)C(=O)N[C@@H](CC(N)=O)C(=O)N[C@H](CCCNC(=N)N)C(N)=O | broth microdilution | DSM 681 | 18 h, 37 °C, 25% MHB2 | 4 µg/mL
CCCCCCCC(=O)N[C@@H](CCN)C(=O)N[C@H](C(=O)N[C@@H](CCN)C(=O)N[C@H]1CCNC(=O)[C@H]([C@@H](C)O)NC(=O)[C@H](CCN)NC(=O)[C@H](CCN)NC(=O)[C@H](Cc2ccc(F)cc2)NC(=O)[C@@H](CC(C)C)NC(=O)[C@H](CCN)NC1=O)[C@@H](C)O | broth microdilution | ATCC 13883, colistin-susceptible |  | 0.25 to 0.5 µg/mL
CC1(C)[C@H](NC(=O)/C(=N\OC2(C(=O)O)CCCCC2)c2csc(N)n2)C(=O)N1OS(=O)(=O)O | agar dilution | 2146, NDM-1 |  | 8 µg/mL
COc1ccc2ccc(O)c(/C=N/[C@H]3CCCC[C@H]3/N=C/c3cccc(OC)c3O)c2c1 | bacterial growth, broth microdilution | carbapenem-resistant clinical isolate |  | > 40 µM
CC(N)C(O)CCCCCCCCCCCCCCC(=O)CCCCCCCC(O)C(C)N (centres unmarked) | resazurin |  |  | > 50 µM
C#CCOc1ccc(CN[C@@]2(C)C[C@H](O[C@H]3[C@H](Oc4c5cc6cc4Oc4ccc(cc4Cl)[C@@H](O)[C@@H](NC(=O)[C@@H](CC(C)C)NC)C(=O)N[C@@H](CC(N)=O)C(=O)N[C@H]6C(=O)N[C@H]4C(=O)N[C@H](C(=O)N[C@H](C(=O)O)c6cc(O)cc(O)c6-c6cc4ccc6O)[C@H](O)c4ccc(c(Cl)c4)O5)O[C@H](CO)[C@@H](O)[C@@H]3O)O[C@@H](C)[C@H]2O)cc1OC | broth microdilution | ATCC 13883, cation-adjusted Mueller-Hinton broth | 18 to 20 h, 37 °C, 0.002% polysorbate 80 | > 128 µg/mL
CC[C@H](C)[C@H](NC(=O)[C@@H](CCCNC(=N)N)NC(=O)[C@H](CCCNC(=N)N)NC(=O)[C@@H]1CCCN1C(=O)[C@@H]1CCCN1C(=O)[C@H](CCCNC(=N)N)NC(=O)[C@@H]1CCCN1C(=O)[C@H](CCCNC(=N)N)NC(=O)[C@@H]1CCCN1C(=O)[C@H](CC(C)C)NC(=O)[C@H](Cc1cc(I)c(O)c(I)c1)NC(=O)[C@@H]1CCCN1C(=O)[C@@H]1CCCN1C(=O)[C@H](CCCCN)NC(=O)[C@H](CC(=O)O)NC(=O)[C@@H](N)C(C)C)C(=O)N[C@@H](Cc1ccc(O)cc1)C(=O)N[C@@H](CC(N)=O)C(=O)N[C@H](CCCNC(=N)N)C(N)=O | broth microdilution | DSM 681 | 18 h, 37 °C, 25% MHB2 | > 128 µg/mL
CC1(C)C(NC(=O)C(=NOCC(=O)N2CC3CCCC3C2C(=O)O)c2csc(N)n2)C(=O)N1OS(=O)(=O)O (centres unmarked) | agar dilution | 09-20, NDM-1 |  | 4 µg/mL
COc1ccc(/C=N/[C@@H]2CCCC[C@@H]2/N=C/c2c(O)ccc3ccc(OC)cc23)c(O)c1 | bacterial growth, broth microdilution | carbapenem-resistant clinical isolate |  | > 40 µM
N=C(N)NCCC[C@@H]1NC(=O)[C@H](CCCNC(=N)N)NC(=O)[C@@H](CCCNC(=N)N)NC(=O)[C@@H](CCCNC(=N)N)NC(=O)[C@@H](C(c2ccccc2)c2ccccc2)NC(=O)[C@H](Cc2c[nH]c3ccccc23)NC(=O)[C@@H](C(c2ccccc2)c2ccccc2)NC1=O |  | ATCC 700603, ESBL SHV-18 |  | 32 µg/mL
C#CCO/N=C(\C(=O)N[C@@H]1C(=O)N(OS(=O)(=O)O)C1(C)C)c1nsc(N)n1 | agar dilution | 2146, NDM-1 |  | > 64 µg/mL
CC[C@H](C)[C@H](NC(=O)[C@H](CCCCN)NC(=O)[C@H](Cc1c[nH]c2ccccc12)NC(=O)[C@H](Cc1c[nH]c2ccccc12)NC(=O)[C@H](CCCCN)NC(=O)[C@H](CCCCN)NC(=O)[C@H](CCCCN)NC(=O)[C@H](Cc1c[nH]c2ccccc12)NC(=O)[C@H](CCCCN)NC(=O)[C@H](CCCCN)NC(=O)[C@H](Cc1c[nH]c2ccccc12)NC(=O)[C@H](CCCCN)NC(=O)[C@H](CCCCN)NC(=O)[C@@H](NC(=O)[C@@H](NC(=O)[C@H](CCCCN)NC(=O)[C@@H](N)CCCNC(=N)N)[C@@H](C)CC)[C@@H](C)CC)C(=O)N[C@@H](Cc1c[nH]c2ccccc12)C(=O)N[C@@H](Cc1c[nH]c2ccccc12)C(=O)N[C@@H](CCCCN)C(N)=O | broth microdilution | 10145 |  | 1.25 µg/mL
CC[C@H](C)[C@H](NC(=O)[C@@H](CCCNC(=N)N)NC(=O)[C@H](CCCNC(=N)N)NC(=O)[C@@H]1CCCN1C(=O)[C@@H]1CCCN1C(=O)[C@H](CCCNC(=N)N)NC(=O)[C@@H]1CCCN1C(=O)[C@H](CCCNC(=N)N)NC(=O)[C@@H]1CCCN1C(=O)[C@H](CC(C)C)NC(=O)[C@H](Cc1ccc(O)cc1)NC(=O)[C@H](Cc1ccccc1)NC(=O)[C@@H]1CCCN1C(=O)[C@H](CCCCN)NC(=O)[C@H](CC(=O)O)NC(=O)[C@@H](N)C(C)C)C(=O)N[C@@H](Cc1ccc(O)cc1)C(=O)N[C@@H](CC(N)=O)C(=O)N[C@H](CCCNC(=N)N)C(N)=O | broth microdilution | DSM 681 | 18 h, 37 °C, 25% MHB2 | 8 µg/mL
CN[C@@H]1[C@H](O)[C@H](NC)[C@H]2O[C@]3(O)[C@H](O[C@@H]2[C@H]1O)O[C@H](C)C[C@H]3NC(=O)Cc1ccc(F)cn1 | microbial growth, broth dilution | ATCC33495 |  | 100 µg/mL
C#CCNC(=O)C(C)(C)O/N=C(\C(=O)N[C@@H]1C(=O)N(S(=O)(=O)O)[C@H]1C)c1csc(N)n1 | agar dilution | 2146 NDM-1 |  | > 128 µg/mL
N=C(N)NCCC[C@@H]1NC(=O)[C@H](CCCNC(=N)N)NC(=O)[C@H](CCCNC(=N)N)NC(=O)[C@@H](CCCNC(=N)N)NC(=O)[C@H](Cc2ccc3ccccc3c2)NC(=O)[C@H](Cc2ccc3ccccc3c2)NC(=O)[C@H](Cc2ccc3ccccc3c2)NC1=O |  | ATCC BAA1705, KPC-2 carbapenem-resistant |  | 64 µg/mL

For quick reference, copied from above:
Structure (SMILES) | test | system | setting | MIC
CCCCCCCC(=O)N[C@@H](CCN)C(=O)N[C@H](C(=O)N[C@@H](CCN)C(=O)N[C@H]1CCNC(=O)[C@H]([C@@H](C)O)NC(=O)[C@H](CCN)NC(=O)[C@H](CCN)NC(=O)[C@H](Cc2ccc(F)cc2)NC(=O)[C@@H](CC(C)C)NC(=O)[C@H](CCN)NC1=O)[C@@H](C)O | broth microdilution | ATCC 13883, colistin-susceptible |  | 0.25 to 0.5 µg/mL
CC[C@H](C)[C@H](NC(=O)[C@H](C)NC(=O)[C@@H](NC(=O)[C@H](CC(=O)O)NC(=O)[C@H](CCCCN)NC(=O)[C@H](CO)NC(=O)[C@@H](NC(=O)[C@H](CC(N)=O)NC(=O)[C@H](C)NC(=O)[C@@H](NC(=O)[C@H](CCC(=O)O)NC(=O)[C@H](CCCCN)NC(=O)[C@@H](NC(=O)[C@@H](NC(=O)[C@H](Cc1c[nH]cn1)NC(=O)[C@H](CCCCN)NC(=O)[C@@H](NC(=O)[C@H](CCCCN)NC(=O)[C@H](CCCCN)NC(=O)[C@@H](NC(=O)[C@H](CC(C)C)NC(=O)[C@H](CCCCN)NC(=O)[C@H](CC(N)=O)NC(=O)[C@H](Cc1ccccc1)NC(=O)[C@H](CCCNC(=N)N)NC(=O)[C@H](CCCCN)NC(=O)[C@H](CCCNC(=N)N)NC(=O)[C@H](Cc1ccccc1)NC(=O)CN)C(C)C)C(C)C)[C@@H](C)O)[C@@H](C)CC)[C@@H](C)O)C(C)C)C(C)C)C(=O)N[C@H](C(=O)N[C@@H](C)C(=O)NCC(=O)N[C@@H](CO)C(=O)NCC(=O)N[C@H](C(=O)N[C@@H](C)C(=O)N[C@H](C(=O)NCC(=O)N[C@@H](C)C(=O)N[C@@H](C)C(=O)N[C@@H](CCSC)C(N)=O)C(C)C)C(C)C)C(C)C |  | DSM 30104, CAMHB with 10% mouse serum |  | 0.063 µg/mL
